Measured values of several laboratories.
Numbered parts are unrelated; each lists some results of a single study. Positions count from the first letter of the parent shown.

Sample 1
Target: RNA binding protein fox-1 homolog 2, RRM domain, GST-SBP tag (RBFOX2, Homo sapiens, UniProt O43251-10, residues 100-194)
Method: RNA Bind-n-Seq
Form: RNA
Matrix: in vitro
Tested at: 365 nM
Setting: natural RNA segment, single round, ends assumed
Baseline: no-protein control
Reading: higher = stronger binding
Measurement: RBNS enrichment (R)
All sequences stand within: GGGAGUUCUACAGUCCGACGAUC … UGGAAUUCUCGGGUGCCAA
Residues (chain): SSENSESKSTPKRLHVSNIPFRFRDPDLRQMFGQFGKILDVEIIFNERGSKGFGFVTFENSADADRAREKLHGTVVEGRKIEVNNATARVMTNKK
AGUUUUCAAAUUCAAUUAAGAUAACUAGAAUUGGAUUAUGGUGUAAAAAUAAAAAAAAAAUUUAUUCACAUAAGUUUCAAGACUGCUCUGUCCCUCACAUGUACACAUAC: 0.613
UGAAUGAAUGGUCUUGCAUUUUAAAAGCUUAUGGGAAACUCAAUUUGAAAUGAUUAGAAAAUGUCAAGUAUUAUAAGCUGGUAUUUAAGAUGCUUGUAAAUACUAUUUAU: 0.711
AUUUGAACUUUUCAAGAAGUAGGUCCUAGUACUUGGGAUCUUGUUAGAUCUGUGCUCUGGAGGUGGUCUGCGUGAUUAGUGUUAGUGUAUGGUUUGGUGGUCUUUAAUGU: 1.73
UCAGAUAGACUUGCUGCUACUGGCUUUUCCAUUGUAGAUUGGGUUAUUUUACACGCAGUUCGCCAAAUGGGAUUGCUCUGUAUAGUCAAAUUGGUGAUGGACAGAUGGAC: 0.279
UCACAUGCUUGUGCCCUGGAAGCCCCAAGGCUCUUCCUCCAGCUGGCUCCCUUGUCUCCAGGGCUUUGGAGGAUCAGGGUAGGGAGGGCUCUGUCUCUAAGCCAGGUGUC: 0.494
UACAAUUUAUACAGCUUUCCUAGCAUUUUAAAUGGAAAUGUCAAUAAAUGCUAUGAAUUGGUGUCAAGUGAUAUUUUCUGUUGAUUUCCUUUGCAACAUGAUAGUUUUCU: 2.69
GCUUUGGGUUUGAAGGGCAAGGGUGGCUGUGAACCACCCCCACCCAGCCGUCAGGCCCGCUUCGUCGUCAUCUCUAUCUCCCUGCUCCCUGGCCCUGAGGGUUUGGAAUC: 0.236
AAAGUAAAAAAUCAGGAUGUUUUUCACUGUCCAUUGCUUUGUGUUUUAAUAAACAAUUUGCAGUGAUCUCCGUGUUGAGAGUGAAUUGAACUCAGAGAGAGAGAUGGUGA: 0.644
AGUCUAUGGAUGUCUUGGCUCUGCUGUCCUGUACUUGCGUGUGUUUUAUUCCUAUUUAAUGUUAUUGACUAUAGCGGAUCUUUGAAAUCAGUGUUUUCCGUGUGAAUUUC: 1.14
GUCUCUGUUGUGCUUACUGCAGGCUGUAAUGGCACUUUUGCUUGUUUCACUUGUUCCCUCUGAGGCUGAAUGCUCCAAGAGAGUGGGAACUGUGCUUCUUACUUACUGAU: 2.6
AGAAAGUCGGCUGUUGAUACGAUUGUCUGUUAUCGAACACAUUCAGUGAUAAAGCUGGGUUACUGCUGCUUUUGGUGCUCUCACCUUAUCUGGAAGAUCUGCAAACAUUA: 0.632
AGCAGGCUGAUGGAAGAUGGCGGGGCCUGCCAACCCCGAGGCUGGGGGAUCGCCAUAUGGACCACCUGGUUGACAGACGGCUUCUUGCUUGCCUGGGCCUUCUGCCUUAU: 0.772

Sample 2
Target: Phosphate system positive regulatory protein PHO4, full length, GST-tagged (PHO4, Saccharomyces cerevisiae, UniProt P07270, residues 1-312)
Method: competition protein-binding microarray
Form: double-stranded DNA, one strand shown
Matrix: in vitro
Tested at: 2 µM
Setting: whole 60-bp probe, lowest competitor level
With: Cbf1 competitor, 0.05 µM
Reading: higher = stronger binding
Measurement: fluorescence intensity
All sequences stand within: … GTCTTGATTCGCTTGACGCTGCTG
Target sequence (chain): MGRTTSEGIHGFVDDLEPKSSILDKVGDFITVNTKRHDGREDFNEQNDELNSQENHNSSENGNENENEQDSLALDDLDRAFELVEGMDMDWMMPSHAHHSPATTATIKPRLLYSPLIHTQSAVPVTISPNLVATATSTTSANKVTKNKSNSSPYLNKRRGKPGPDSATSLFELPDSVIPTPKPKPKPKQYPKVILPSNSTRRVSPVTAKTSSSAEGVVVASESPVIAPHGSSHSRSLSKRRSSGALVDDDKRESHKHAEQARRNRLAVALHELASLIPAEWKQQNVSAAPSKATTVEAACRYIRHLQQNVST
TCGGGCTCCGTTTCGTCCGTGGGTACTCCAGCAGAT: 4960 a.u.
TTGAGTTTCCCTCACTTCGTGATGGGCGTTAACGTC: 3790 a.u.
GTCTTGTCTCATTGCGTTGTGGGTGTCCCCACTTCA: 5350 a.u.
GATCAGTTTGAAAGAAACGTGAAAATTATTTTTTTC: 8210 a.u.
ATTTCTCAATACCATCACGTGCGATCTAAGAAGATG: 19600 a.u.
CTTTCCCGATCTTGCGTGGTGGGTGTAGCACATTTG: 6780 a.u.
CTGCCTCTTTTCCAGCATGTGGCAACTGTCCCGACG: 11000 a.u.
GGTGGTACCTGTGTTAACGTGGGTAGTGTTCCGAAG: 10200 a.u.
AGCTACCGATTCCATCACGCTTCCTGGTACGGGTGC: 4990 a.u.
CTACGTACAAGTGTATACGTGCCAGTATTTGGACGC: 7650 a.u.
GTCTTGTCTCATTGACGTGTGGGTGTCCCCACTTCA: 6380 a.u.
TGCGCAACAACTTTTCACGTGGATTTATGTCTAGAA: 13700 a.u.
GATCCGTATGCTCATCTCGTGATGGAGAAGTAACGC: 6740 a.u.
CCAATGTACTTAAAGCACGATATCGACGCTCCTAAG: 7790 a.u.
CTGGTACTGAAGAATCACATGTGTGGAACGGTATAG: 11300 a.u.
CGGGGTTAAGTTTGTCACTCTACTTGCTTGCAGCAG: 3470 a.u.
GAAACTCATAGAGATGACGTGCCAGTTGGTTACGCC: 5520 a.u.
AGGGCGAGGGTGATACTCGTGGGTATGTTTCAATGC: 10800 a.u.
ACCTTGGCGCATTATCATGTTTGTGATGTCATCCAG: 4840 a.u.
AAATTACTAAGTTGTGCGGTGGGTGACGCCGTATGA: 5050 a.u.
GCTACGCATTCCCTTCGCGTGAGACCATCAAATCTC: 4600 a.u.
ATATCCCGCGCTTTTCCCGTGGTGAATACTGTGTGT: 6090 a.u.
ATTGAGAAGTATAACGACACCCAGTGGACCTCGGGT: 3990 a.u.
AAGGATAGCACTTTGATCATGCAATTATTAAGGGAC: 5210 a.u.
TCCTGAAGGTGTTTGCACGTGTGGACGGCTAGAGAA: 17400 a.u.

Sample 3
Target: CCND2, cyclin fold, Cln2 fusion (human)
Method: yeast growth competition, sequencing
Matrix: yeast
Setting: weak parent motif
Baseline: not given
Reading: higher = stronger binding
Measurement: normalised enrichment score
Starting sequence: CDC6 docking peptide (human); TLKGRRLVFDNQL; partner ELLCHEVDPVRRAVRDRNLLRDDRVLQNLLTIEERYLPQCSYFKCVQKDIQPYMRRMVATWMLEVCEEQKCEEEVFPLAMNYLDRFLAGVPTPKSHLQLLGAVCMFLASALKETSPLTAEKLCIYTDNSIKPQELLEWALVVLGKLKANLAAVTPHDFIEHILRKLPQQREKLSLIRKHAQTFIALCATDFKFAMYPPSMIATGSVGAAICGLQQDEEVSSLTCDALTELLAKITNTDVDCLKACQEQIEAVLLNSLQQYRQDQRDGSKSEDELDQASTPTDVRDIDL
YLKGRRLVFDNQL [T1Y]: 0.0673
TLKGRRLVFDNQV [L13V]: 0.0346
TLKGRRLVFDNQM [L13M]: 0.261
TLKGRRLVFDHQL [N11H]: 0.201
TLKNRRLVFDNQL [G4N]: 0.389
TLKGRRKVFDNQL [L7K]: 0.289
TLKGRRLFFDNQL [V8F]: -0.174
TLKRRRLVFDNQL [G4R]: 0.423
TRKGRRLVFDNQL [L2R]: 1.2
TLKGRRLLFDNQL [V8L]: 0.431
TLKGRRLVDDNQL [F9D]: 0.281
TLKGFRLVFDNQL [R5F]: 0.353
TLKGRRNVFDNQL [L7N]: 0.0363
TLKGRRLVFDNQC [L13C]: 0.325
TLKGMRLVFDNQL [R5M]: 0.156
TLNGRRLVFDNQL [K3N]: 0.0997
TLKGHRLVFDNQL [R5H]: 0.0885
TLKGRRLVFDNDL [Q12D]: 0.74
HLKGRRLVFDNQL [T1H]: 0.657

Sample 4
Target: UBE2M UBC core domain (UniProt P61081)
Method: yeast two-hybrid
Matrix: yeast
Setting: mostly zero background
Baseline: not given
Reading: higher = stronger interaction
Measurement: lacZ reporter activity
B1: TRIM55 RING domain (UniProt Q9BYV6); chain TMDNLEKQLICPICLEMFTKPVVILPCQHNLCRKCASDIFQASNPYLPTRGGTTMASGGRFRCPSCRHEVVLDRHG
B2: TRIM15 RING domain (UniProt Q9C019); chain SLKVVHELPACTLCAGPLEDAVTIPCGHTFCRLCLPALSQMGAQSSGKILLCPLCQEEEQAETPMA
B3: NSMCE1 RING domain (UniProt Q8WV22); chain RETYPDAVKICNICHSLLIQGQSCETCGIRMHLPCVAKYFQSNAEPRCPHCNDYWPHEIPKV
B4: RNF149 RING domain (UniProt Q8NC42); chain EKGIDVDAENCAVCIENFKVKDIIRILPCKHIFHRICIDPWLLDHRTCPMCKLDVIKALGYW
B5: RNF43 RING domain (UniProt Q68DV7); chain SGSSCSSAPVCAICLEEFSEGQELRVISCLHEFHRNCVDPWLHQHRTCPLCMFNITEGDSFS
B6: MSL2 RING domain (UniProt Q9HCI7); chain LLPYFRQSLSCCVCGHLLQDPIAPTNSTCQHYVCKTCKGKKMMMKPSCSWCKDYEQFEENKQ
B7: RNF175 RING domain (UniProt Q8N4F7); chain LPTRSLSDNICAVCGQKIIVELDEEGLIENTYQLSCNHVFHEFCIRGWCIVGKKQTCPYCKEKVDLKRMIS
B8: TRIM52 RING domain (UniProt Q96A61); chain PMQTLQEEAVCAICLDYFKDPVSISCGHNFCRGCVTQLWSKEDEEDQNEEEDEWEEEEDEEAV
B9: RNF14 RING domain (UniProt Q9UBS8); chain IKCFNSKLFLCSICFCEKLGSECMYFLECRHVYCKACLKDYFEIQIRDGQVQCLNCPEPKCPSVATPGQVK
B10: UBE4A RING domain (UniProt Q14139); chain LQQQEEETYADACDEFLDPIMSTLMCDPVVLPSSRVTVDRSTIARHLLSDQTDPFNRSPLTMDQIRPNTELKEKIQRWLAERKQQKEQLE
B11: RNF32 RING domain (UniProt Q9H0A6); chain SLLQGDSVQPCPICKEEFELRPQVLLSCSHVFHKACLQAFEKFTNKKTCPLCRKNQYQTRVIH
B12: PHF7 RING domain (UniProt Q9BWX1); chain IQHGHVGEESCILCCEDLSQQSVENIQSPCCSQAIYHRKCIQKYAHTSAKHFFKCPQCNNRKEFPQEML
Residues (chain): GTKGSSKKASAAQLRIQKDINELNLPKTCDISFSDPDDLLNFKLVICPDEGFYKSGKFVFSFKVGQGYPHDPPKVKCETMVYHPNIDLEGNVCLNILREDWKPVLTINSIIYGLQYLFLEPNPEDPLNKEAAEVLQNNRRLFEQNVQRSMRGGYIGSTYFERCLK
LKQVSIRENCCSLCCDEVADTQLKPCGHSDLCMDCALQLETCPLCRKEIVSRIRQI (RSPRY1 RING domain (UniProt Q96DX4)): 0
B1 (TRIM55 RING domain): 0
B2 (TRIM15 RING domain): 0
B3 (NSMCE1 RING domain): 0
B4 (RNF149 RING domain): 0
B5 (RNF43 RING domain): 0
B6 (MSL2 RING domain): 0
B7 (RNF175 RING domain): 0
B8 (TRIM52 RING domain): 0
B9 (RNF14 RING domain): 0
B10 (UBE4A RING domain): 0
KRQCSDVDDICSICQAEFQKPILLICQHIFCEECMTLWFNREKTCPLCRTVISDHINKW (RNFT1 RING domain (UniProt Q5M7Z0)): 0
KIKDLNEHIVCCLCAGYFVDATTITECLHTFCKSCIVKYLQTSKYCPMCNIKIHETQPLL (PCGF1 RING domain (UniProt Q9BSM1)): 0
B11 (RNF32 RING domain): 0
B12 (PHF7 RING domain): 0
